Measured values from different studies.
Each line is one published result; not all experiments were run side by side. Several values in a cell are separate wells, animals, samples, runs or records. ± marks the error that the study gave.
MAPK14: Mitogen-activated protein kinase 14 (MAPK14, Homo sapiens, UniProt Q16539)
Chain of UniProt Q007T0 (whole entry, looked up): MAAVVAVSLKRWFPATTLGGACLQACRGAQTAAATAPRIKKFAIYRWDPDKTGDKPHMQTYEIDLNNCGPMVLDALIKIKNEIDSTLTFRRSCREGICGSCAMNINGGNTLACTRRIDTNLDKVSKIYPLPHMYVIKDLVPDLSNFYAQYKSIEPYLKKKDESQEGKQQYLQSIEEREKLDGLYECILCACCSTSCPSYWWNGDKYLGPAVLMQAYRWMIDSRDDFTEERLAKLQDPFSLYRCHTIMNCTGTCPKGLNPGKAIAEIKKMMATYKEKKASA
Chain of UniProt D0VWV4 (whole entry, looked up): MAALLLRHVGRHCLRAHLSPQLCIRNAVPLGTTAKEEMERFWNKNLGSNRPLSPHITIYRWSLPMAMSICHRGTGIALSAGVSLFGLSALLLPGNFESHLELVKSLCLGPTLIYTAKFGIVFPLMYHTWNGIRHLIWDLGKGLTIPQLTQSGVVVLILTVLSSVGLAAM
Chain of UniProt A5GZW8 (whole entry, looked up): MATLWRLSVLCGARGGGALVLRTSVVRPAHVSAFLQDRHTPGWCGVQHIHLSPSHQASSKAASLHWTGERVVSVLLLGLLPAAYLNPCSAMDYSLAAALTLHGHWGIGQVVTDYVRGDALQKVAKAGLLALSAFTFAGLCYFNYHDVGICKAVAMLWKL
Chain of UniProt Q16539 (whole entry, looked up): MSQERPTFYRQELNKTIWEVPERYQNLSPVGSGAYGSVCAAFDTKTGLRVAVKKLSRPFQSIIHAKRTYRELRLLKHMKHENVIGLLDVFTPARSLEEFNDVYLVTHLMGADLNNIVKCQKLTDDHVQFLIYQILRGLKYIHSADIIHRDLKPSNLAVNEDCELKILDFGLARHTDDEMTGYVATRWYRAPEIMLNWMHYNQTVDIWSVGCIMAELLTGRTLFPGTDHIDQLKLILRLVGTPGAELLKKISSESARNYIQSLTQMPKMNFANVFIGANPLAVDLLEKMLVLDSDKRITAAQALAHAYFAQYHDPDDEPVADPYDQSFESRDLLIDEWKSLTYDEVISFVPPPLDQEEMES
Chain of UniProt O00222 (whole entry, looked up): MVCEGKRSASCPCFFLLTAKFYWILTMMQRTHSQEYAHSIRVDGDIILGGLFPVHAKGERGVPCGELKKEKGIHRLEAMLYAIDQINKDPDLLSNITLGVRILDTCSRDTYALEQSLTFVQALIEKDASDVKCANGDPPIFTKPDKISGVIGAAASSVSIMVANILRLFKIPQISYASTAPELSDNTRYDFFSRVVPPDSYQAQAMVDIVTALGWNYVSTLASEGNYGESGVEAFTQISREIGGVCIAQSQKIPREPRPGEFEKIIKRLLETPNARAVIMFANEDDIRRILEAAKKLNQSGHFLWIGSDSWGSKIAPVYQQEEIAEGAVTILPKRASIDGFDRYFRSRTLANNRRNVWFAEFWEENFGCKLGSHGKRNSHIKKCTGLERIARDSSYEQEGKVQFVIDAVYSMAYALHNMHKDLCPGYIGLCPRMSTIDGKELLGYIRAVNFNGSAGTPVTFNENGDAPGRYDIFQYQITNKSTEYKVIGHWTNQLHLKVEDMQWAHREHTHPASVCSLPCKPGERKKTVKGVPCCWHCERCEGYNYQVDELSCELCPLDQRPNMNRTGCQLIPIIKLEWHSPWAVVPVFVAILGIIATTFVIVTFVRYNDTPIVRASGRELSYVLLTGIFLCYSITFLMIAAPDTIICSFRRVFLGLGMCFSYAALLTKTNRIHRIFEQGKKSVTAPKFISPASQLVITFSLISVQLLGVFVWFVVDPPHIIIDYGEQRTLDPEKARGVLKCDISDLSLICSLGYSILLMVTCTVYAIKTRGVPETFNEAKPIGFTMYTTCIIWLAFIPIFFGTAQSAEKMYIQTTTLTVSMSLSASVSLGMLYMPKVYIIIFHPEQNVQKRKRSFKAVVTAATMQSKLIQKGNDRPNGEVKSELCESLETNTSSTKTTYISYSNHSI
Chain of UniProt P08912 (whole entry, looked up): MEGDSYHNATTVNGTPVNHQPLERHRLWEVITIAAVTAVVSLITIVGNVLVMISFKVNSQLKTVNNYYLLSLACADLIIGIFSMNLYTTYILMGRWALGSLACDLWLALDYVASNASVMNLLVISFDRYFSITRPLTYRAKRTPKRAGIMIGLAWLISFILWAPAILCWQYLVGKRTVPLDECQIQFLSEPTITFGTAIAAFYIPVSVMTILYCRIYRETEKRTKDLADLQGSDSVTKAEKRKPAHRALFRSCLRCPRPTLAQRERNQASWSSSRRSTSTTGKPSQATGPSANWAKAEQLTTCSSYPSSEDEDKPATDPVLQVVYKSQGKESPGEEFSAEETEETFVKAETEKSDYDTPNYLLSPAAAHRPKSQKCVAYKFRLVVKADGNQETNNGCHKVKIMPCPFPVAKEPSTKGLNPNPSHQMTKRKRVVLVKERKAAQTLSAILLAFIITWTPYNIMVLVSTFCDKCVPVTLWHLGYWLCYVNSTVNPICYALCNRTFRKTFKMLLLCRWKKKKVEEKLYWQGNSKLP
Chain of UniProt P00942 (whole entry, unmodified, looked up): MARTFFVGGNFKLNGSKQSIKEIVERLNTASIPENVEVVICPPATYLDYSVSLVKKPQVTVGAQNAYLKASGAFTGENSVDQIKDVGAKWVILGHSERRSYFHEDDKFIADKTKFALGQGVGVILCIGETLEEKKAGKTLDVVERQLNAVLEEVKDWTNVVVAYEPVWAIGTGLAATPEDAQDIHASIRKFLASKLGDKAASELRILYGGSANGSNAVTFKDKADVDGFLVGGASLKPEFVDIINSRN
Chain of UniProt O75914 (whole entry, looked up): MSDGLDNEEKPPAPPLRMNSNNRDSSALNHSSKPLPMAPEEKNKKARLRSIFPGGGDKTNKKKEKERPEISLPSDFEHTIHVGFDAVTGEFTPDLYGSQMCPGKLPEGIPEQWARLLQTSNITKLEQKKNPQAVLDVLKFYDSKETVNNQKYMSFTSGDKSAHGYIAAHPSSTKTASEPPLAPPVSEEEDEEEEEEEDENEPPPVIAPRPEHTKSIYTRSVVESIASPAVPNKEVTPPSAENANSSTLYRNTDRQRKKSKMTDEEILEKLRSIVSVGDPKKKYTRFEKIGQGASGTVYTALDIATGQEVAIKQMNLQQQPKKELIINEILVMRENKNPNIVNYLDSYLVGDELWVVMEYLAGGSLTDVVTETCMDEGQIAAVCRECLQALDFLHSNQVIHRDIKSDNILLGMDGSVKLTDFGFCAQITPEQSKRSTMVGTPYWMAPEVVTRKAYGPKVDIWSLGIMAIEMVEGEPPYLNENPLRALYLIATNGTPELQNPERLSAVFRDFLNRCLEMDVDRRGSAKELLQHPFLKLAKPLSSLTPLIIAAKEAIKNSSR
Chain of UniProt Q9JLB5 (whole entry, looked up): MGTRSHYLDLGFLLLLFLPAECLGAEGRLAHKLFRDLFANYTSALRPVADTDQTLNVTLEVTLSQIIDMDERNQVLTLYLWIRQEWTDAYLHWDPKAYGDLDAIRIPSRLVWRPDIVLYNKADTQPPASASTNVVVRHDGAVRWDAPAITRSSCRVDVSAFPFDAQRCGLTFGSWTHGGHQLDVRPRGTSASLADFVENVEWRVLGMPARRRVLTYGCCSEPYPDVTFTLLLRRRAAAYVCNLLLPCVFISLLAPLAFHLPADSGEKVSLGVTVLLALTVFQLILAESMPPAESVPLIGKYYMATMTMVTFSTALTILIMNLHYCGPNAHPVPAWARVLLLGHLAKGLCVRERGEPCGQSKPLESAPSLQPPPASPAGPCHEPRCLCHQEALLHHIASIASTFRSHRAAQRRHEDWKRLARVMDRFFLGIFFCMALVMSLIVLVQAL
Chain of UniProt O94921 (whole entry, looked up): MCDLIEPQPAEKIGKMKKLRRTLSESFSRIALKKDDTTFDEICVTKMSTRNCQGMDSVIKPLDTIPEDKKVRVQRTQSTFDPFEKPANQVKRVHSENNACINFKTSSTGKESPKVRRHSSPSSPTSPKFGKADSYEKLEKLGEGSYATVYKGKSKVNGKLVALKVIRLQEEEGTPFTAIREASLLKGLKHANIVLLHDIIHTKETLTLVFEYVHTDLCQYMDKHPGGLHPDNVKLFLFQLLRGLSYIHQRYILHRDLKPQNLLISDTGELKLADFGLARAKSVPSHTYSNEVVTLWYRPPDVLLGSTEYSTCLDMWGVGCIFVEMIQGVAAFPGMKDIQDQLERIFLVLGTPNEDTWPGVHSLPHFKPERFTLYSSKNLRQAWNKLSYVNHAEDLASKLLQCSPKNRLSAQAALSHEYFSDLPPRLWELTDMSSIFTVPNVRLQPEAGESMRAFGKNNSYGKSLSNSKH
Chain of UniProt P43403 (whole entry, looked up): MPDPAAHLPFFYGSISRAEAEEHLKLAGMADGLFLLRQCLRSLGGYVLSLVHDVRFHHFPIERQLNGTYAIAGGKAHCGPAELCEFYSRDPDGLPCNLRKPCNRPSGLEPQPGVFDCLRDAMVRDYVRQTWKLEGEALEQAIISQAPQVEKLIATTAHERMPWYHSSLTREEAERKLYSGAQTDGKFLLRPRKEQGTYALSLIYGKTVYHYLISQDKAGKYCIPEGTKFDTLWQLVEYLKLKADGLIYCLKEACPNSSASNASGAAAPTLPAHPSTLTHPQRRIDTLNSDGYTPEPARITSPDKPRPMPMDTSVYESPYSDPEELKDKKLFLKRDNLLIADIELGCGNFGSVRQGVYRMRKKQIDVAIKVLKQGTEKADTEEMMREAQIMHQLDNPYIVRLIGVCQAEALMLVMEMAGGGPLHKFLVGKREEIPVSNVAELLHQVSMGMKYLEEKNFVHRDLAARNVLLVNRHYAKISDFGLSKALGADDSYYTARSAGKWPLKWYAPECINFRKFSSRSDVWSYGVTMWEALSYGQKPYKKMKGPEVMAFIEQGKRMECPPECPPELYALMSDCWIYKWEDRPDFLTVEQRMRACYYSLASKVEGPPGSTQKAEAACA
Chain of UniProt P07148 (whole entry, looked up): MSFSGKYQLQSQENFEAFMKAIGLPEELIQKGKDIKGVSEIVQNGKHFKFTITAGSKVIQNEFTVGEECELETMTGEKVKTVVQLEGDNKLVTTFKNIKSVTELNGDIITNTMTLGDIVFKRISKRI

Structure (SMILES) = C[C@H]1CN(c2n[nH]c3nc(N[C@H]4CC[C@H](NS(=O)(=O)CCC(F)(F)F)CC4)ncc23)CCO1; target or system = MAPK14; test = Kinobeads competition; test system = HEK293, K562, placenta lysate; setting = 0.032 µM, unit not given; how to read = relative to: vehicle; quantity = remaining binding; value = 0.97
Structure (SMILES) = Cc1ccc([C@H]2C[C@@H]2COc2cc(NCc3nnc(C)s3)nc(C)n2)nc1; target or system = PDE7A (Homo sapiens, UniProt Q13946); test = enzyme activity, inhibitor, IMAP fluorescence polarization; how to read = relative to: Ki target over Ki PDE10A2; quantity = selectivity ratio; value = > 2.59e+06 fold
Structure (SMILES) = NCCc1c[nH]c2ccc(O)cc12; target or system = serotonin receptor-like protein (Schistosoma mansoni, UniProt A0A173FEI8); test = cAMP level, agonist, GloSensor luminescence; how to read = relative to: 5-HT maximal response; quantity = Emax; value = 100 ± 7%
Structure (SMILES) = CC(C)C[C@@H]1NC(=O)[C@H](CC(=O)O)NC(=O)[C@@H]2CCCN2C(=O)[C@@H](NC(=S)Nc2ccc3c(c2)C(=O)OC32c3ccc(O)cc3Oc3cc(O)ccc32)CSCc2cccc(c2)CSC[C@@H](C(N)=O)NC1=O; target or system = Kelch-like protein 20 (Homo sapiens, UniProt Q9Y2M5); test = binding, pull-down proteomics; test system = PC-3; setting = concentration not given; how to read = relative to: compound beads over empty beads; quantity = log2 fold change; value = 7.34 and 7.3
Structure (SMILES) = O=C(O)COP(=O)(O)O; target or system = TPI1 (Saccharomyces cerevisiae, UniProt P00942, Y208T); test = enzyme activity, competitive inhibitor, GPDH/NADH-coupled; setting = pH 9.3, 25 °C, ionic strength 0.1 NaCl, together with: glyceraldehyde 3-phosphate substrate; how to read = relative to: mutant over wild type; quantity = Ki ratio; value = 11
Structure (SMILES) = COc1ccc2c3c([nH]c2c1)CCN(C)CC3.O=C(O)/C=C/C(=O)O; target or system = Nicotinic acetylcholine receptor alpha9/alpha10 (Rattus norvegicus, UniProt P43144+Q9JLB5); test = ion current, inhibitor, two-electrode voltage clamp; test system = Xenopus laevis oocytes; setting = 3 µM, rat receptor, together with: acetylcholine 100 µM; quantity = recovery time constant; value = 19.3 ± 1.2 s
Structure (SMILES) = CCN(CC)CCCNC(=O)CSc1c2c(nc3cc(Cl)ccc13)CCCC2; target or system = Vero-E6; test = CellTiter-Glo ATP; setting = concentration not given, 72 h, second round 5-point; how to read = relative to: DMSO 0%, hyamine -100%, more negative, more toxic; quantity = cytotoxicity efficacy; value = 7.95%
Structure (SMILES) = O=C(Cc1ccc2ccccc2c1)N[C@H]1CCOC1=O; target or system = Regulatory protein SdiA (sdiA, Escherichia coli, UniProt P07026); quantity = Emax; value = 109%
Structure (SMILES) = Cc1onc(C(=O)N2CCN(C(c3ccc(Cl)cc3)c3ccc(Cl)cc3)CC2)c1[N+](=O)[O-]; target or system = human coronavirus OC43; test = virus-induced cell killing; test system = MRC-5; setting = screen; quantity = maximum inhibition; value = 11.5%
Structure (SMILES) = COc1cc(F)cc2c(N3CCN4c5ccccc5OC[C@H]4C3)c(C#N)nnc12; target or system = GRM8 (Homo sapiens, UniProt O00222); test = positive allosteric modulator; setting = together with: glutamate; how to read = relative to: glutamate maximum; quantity = efficacy; value = 68%
Structure (SMILES) = C=C(CN(C(=O)c1c(C(F)F)nn(C)c1F)C1CC1)c1ccc(Cl)cc1Cl; target or system = SDHD/SDHC/SDHB (Sus scrofa, UniProt A5GZW8+D0VWV4+Q007T0); test = enzyme activity, inhibitor, DCIP reduction; test system = pig; setting = 0.2 µM, together with: DCIP 5 µM; quantity = reaction velocity; value = 0.00153 µM/s and 0.00175 µM/s
Structure (SMILES) = Nc1ccc(O)c(C(=O)O)c1; target or system = ppk (Escherichia coli, UniProt P0A7B1, D230N); test = inhibitor; setting = 1 mM; how to read = relative to: DMSO; quantity = polyphosphate synthesis; value = inhibited
Structure (SMILES) = CSCC[C@H](NC(=O)CNC(=O)[C@H](CC(N)=O)NC(=O)[C@H](CCSC)NC(=O)[C@H](CCSC)NC(=O)[C@H](CCC(N)=O)NC(=O)[C@H](Cc1c[nH]c2ccccc12)NC(=O)[C@@H](N)CCSC)C(=O)N[C@@H](CO)C(=O)N[C@@H](CCC(N)=O)C(N)=O; target or system = huntingtin exon 1 bundled fibrils; test = EPR; setting = concentration not given; how to read = relative to: protofibrils; quantity = binding stoichiometry reduction; value = ~6 fold
Structure (SMILES) = COc1cc2oc(-c3ccc(O)c(O)c3)cc(=O)c2c(O)c1O; target or system = Genome polyprotein, NS2B-NS3 protease (ZIKV, UniProt A0A024B7W1); test = enzyme activity, non-competitive inhibitor; setting = together with: Bz-nKRR-AMC substrate; quantity = Ki'; value = 14 µM
Structure (SMILES) = CN(Cc1ccc(C(C)(C)C)cc1)Cc1cccc2ccccc12; target or system = human coronavirus OC43; test = virus-induced cell killing; test system = MRC-5; setting = screen; quantity = maximum inhibition; value = 9.54%
Structure (SMILES) = CN(C(=O)n1cnc(-c2ccc[n+]([O-])c2)c1)C1CCCCC1; target or system = ZAP70 (Homo sapiens, UniProt P43403); test = kinase activity; setting = 10 µM, together with: poly(Glu,Tyr); quantity = inhibition; value = 8%
Structure (SMILES) = Nc1ncc(-c2nc(N3CCOCC3)nc(N3CCOCC3)n2)c(C(F)F)n1; target or system = Kv potassium channel; test = radioligand binding, antagonist ligand; setting = 10 µM; how to read = relative to: control; quantity = remaining binding; value = 109%
Structure (SMILES) = [2H]c1c([2H])c([C@]2([2H])CCCN2C(=O)C(C)(C)Oc2ccc3cn[nH]c3c2)c([2H])c([2H])c1C([2H])([2H])[2H]; target or system = CDK14 (Homo sapiens, UniProt O94921); test = KINOMEscan; setting = 1 µM; how to read = relative to: DMSO control; quantity = remaining binding; value = 91%
Structure (SMILES) = CSC[C@H]1CN(Cc2c[nH]c3c(N)ncnc23)C[C@@H]1O; target or system = Aminodeoxyfutalosine nucleosidase (Helicobacter pylori, UniProt Q9ZMY2); test = radiolabel chase ultrafiltration; setting = pH 7.4, inhibitor off-rate; quantity = k4; value = 0.14 ± 0.02 min⁻¹
Structure (SMILES) = CC(C)[C@@H](O)CC[C@@H](C)[C@H]1CC[C@H]2[C@@H]3CC=C4C[C@@H](O)CC[C@]4(C)[C@H]3CC[C@]12C; target or system = Glutamate NMDA receptor; GRIN1/GRIN2B (GRIN1/GRIN2B, Homo sapiens, UniProt Q05586+Q13224, T550A); test = positive allosteric modulator, two-electrode voltage clamp; test system = Xenopus oocytes expressing GluN1-T550A; setting = 10 µM, 0.02% cremophor, together with: 100 µM glutamate and glycine; how to read = relative to: without compound; quantity = current response; value = 116 ± 5.2%
Structure (SMILES) = COc1ccc(N2C(=O)N(c3c(C)cccc3Cl)Cc3cnc(Nc4ccc(C5CCN(C)CC5)cc4OC)nc32)nc1; target or system = PAK3 (Homo sapiens, UniProt O75914); test = kinase activity; setting = 0.5 µM; quantity = inhibition; value = 7%
Structure (SMILES) = O=C(c1ccc(Cl)cc1)N1CCN2C(=O)N(OC(=O)N3CCOc4ccccc43)C(=O)C2C1 (stereo not shown); target or system = Fatty acid synthase (FASN, Homo sapiens, UniProt P49327); test = enzyme activity, inhibitor, MS-based ABPP; test system = SW-620 conditioned medium; setting = 10 µM, 1 h, 37 °C; how to read = relative to: compound over DMSO, lower = stronger inhibition; quantity = median ratio; value = 1.2
Structure (SMILES) = O=C(O)C(F)(F)C(F)(F)C(F)(F)C(F)(F)C(F)(F)C(F)(F)C(F)(F)F; target or system = SLC22A6 (Homo sapiens, UniProt Q4U2R8); test = uptake, substrate, two-transporter equation fit; test system = HEK293 cells stably expressing SLC22A6; setting = 2.5 min, 37 °C; quantity = Jmax; value = 636 ± 101 pmol/min/mg protein
Structure (SMILES) = O=C(Nc1cccnn1)N1CCC(=Cc2cccc(Oc3ccc(C(F)(F)F)cn3)c2)CC1; target or system = HRH4 (Homo sapiens, UniProt Q9H3N8); test = radioligand binding; setting = 10 µM, together with: [3H]histamine; quantity = inhibition of binding; value = -3%
Structure (SMILES) = NCCc1c[nH]c2ccc(O)cc12; target or system = AANAT2 pig; test = substrate, DTNB colorimetric; setting = together with: acetyl-CoA; quantity = Km; value = 240 ± 50 µM
Structure (SMILES) = CN[C@@H]1C[C@H]2O[C@@](C)([C@@H]1OC)n1c3ccccc3c3c4c(c5c6ccccc6n2c5c31)C(=O)NC4; target or system = MAPK14; test = kinase activity, Kinase-Glo; setting = concentration not given; quantity = normalized luminescence; value = -0.0242
Structure (SMILES) = O=S(=O)(O)C(F)(F)C(F)(F)C(F)(F)C(F)(F)C(F)(F)C(F)(F)F; target or system = FABP1 (Homo sapiens, UniProt P07148); test = affinity selection mass spectrometry; setting = 100 nM, together with: pooled compounds; how to read = relative to: other proteins; quantity = binding fold change; value = 153
Structure (SMILES) = CI; target or system = HOL1 (Arabidopsis thaliana, UniProt Q0WP12, L101I/V140T/V178E/T213S); test = substrate, iodide release colorimetric; setting = pH 7.5, sodium phosphate buffer, together with: 1 mM SAH; quantity = Km; value = 4900 ± 1250 µM
Structure (SMILES) = O=C(NNC(=O)c1csnn1)c1ccc(Cl)cc1; target or system = Acetyl-CoA synthetase (Cryptococcus neoformans, UniProt J9VFT1); setting = 195 nM; quantity = remaining activity; value = 96%
Structure (SMILES) = CN1CCN(c2cc(-c3ccncc3)c(-c3ccc4ccccc4c3)nn2)CC1; target or system = CHRM5 (Homo sapiens, UniProt P08912); test = agonist, FLIPR; setting = 12.5 µM; quantity = activation; value = 3.6%
Structure (SMILES) = O=C(O)CCCCN(CCc1cc(F)ccc1OCc1ccc(-c2ccc(C(F)(F)F)cc2)cc1)Cc1ccc(C(=O)O)cc1; target or system = Gucy1b1, heme-free (Rattus norvegicus, UniProt P20595); test system = A7r5; setting = 1 µM, compound alone, together with: ODQ 10 µM pretreatment; how to read = relative to: untreated control; quantity = cGMP level; value = 7.06 ± 2.02 fold
